Published values collected from several papers.
Each line is one published result; not all experiments were run side by side. Numbers after ± are the reported error.

| Structure (SMILES) | cell line | test | setting | IC50 |
| --- | --- | --- | --- | --- |
| CCCN(Cc1ccccc1OC)C(=O)c1cc2c(s1)CCCC2 | HEK293 | cell viability, MTT | 72 h | 29 to 31 µM |
| CCCCC(CC)COC(=O)CC(C(=O)OCC(CC)CCCC)S(=O)(=O)O.CN(C)C(=N)N=C(N)N (stereo not shown) | SK-N-BE(2)-C | cell growth or viability, SRB | – | 36 µM |
| CC1=C(CO)C(=O)O[C@@H]([C@@H](C)[C@H]2CC[C@H]3[C@@H]4C[C@H]5O[C@]56[C@@H](O)C=CC(=O)[C@]6(CO)[C@H]4CC[C@]23C)C1 | MDA1986 HNSCC | cell viability, MTS | – | 3.1 ± 0.46 µM |
| CC1=C(CC(=O)Oc2ccc(-c3cc(=S)ss3)cc2)c2cc(F)ccc2/C1=C\c1ccc([S+](C)[O-])cc1 (stereo not shown) | HepG2 and LS180 | EROD activity, inhibitor | 24 h, averaged over cell lines, with: TCDD 250 pmol | 22 µM |
| CN(C)c1cc2[nH]c(C3CCCCC3)nc2cc1NC(=O)c1ccc(Br)cc1 | Vero | cytotoxicity, Alamar Blue | 3 days, 37 °C | > 100 µg/mL |
| CCCN(Cc1ccccc1OC)C(=O)c1cc(F)cc(Br)c1 | HEK293 | cell viability, MTT | 72 h | 18 µM |
| CCN(CC)c1cc2[nH]c(C3CCCCC3)nc2cc1NC(=O)c1cccc(Br)c1 | Vero | cytotoxicity, Alamar Blue | 3 days, 37 °C | > 100 µg/mL |
| CC1(C)O[C@H]1COc1c2ccoc2cc2oc(=O)ccc12 | NIH3T3 | cell growth or viability, MTT | 24 h | 57.2 µM |
| CN(C)c1cc2[nH]c(C3CCCCC3)nc2cc1NC(=O)c1cccc(Br)c1 | Vero | cytotoxicity, Alamar Blue | 3 days, 37 °C | > 100 µg/mL |
| CCCN(Cc1ccccc1OC)C(=O)c1cccc(Br)c1F | HEK293 | cell viability, MTT | 72 h | 24 ± 9.4 µM |

Some of these lines once more:
| Structure (SMILES) | cell line | test | setting | IC50 |
| --- | --- | --- | --- | --- |
| CN(C)c1cc2[nH]c(C3CCCCC3)nc2cc1NC(=O)c1ccc(Br)cc1 | Vero | cytotoxicity, Alamar Blue | 3 days, 37 °C | > 100 µg/mL |
